Experimental data pooled from the literature.
Protocols differ between the studies behind these lines. ± marks the error that the study gave.
Cell line: A549

SMILES | read-out | technique | time | IC50
C1CCN(C2CCNCC2)CC1.CCCC(CCC)C(=O)[O][Pt]([OH])([Cl])[Cl].CCCCN | cell growth or viability |  |  | 15.5 µM
C[C@H]1C(OCCCCCCC[P+](c2ccccc2)(c2ccccc2)c2ccccc2)O[C@@H]2O[C@@]3(C)CCC4[C@H](C)CCC1[C@]42OO3 (stereo partly drawn) | cell growth or viability | MTT | 72 h | 0.138 µM
CC[C@@H](C)[C@@H](NC(=O)[C@@H](Cc1c[nH]c2ccccc12)NC(=O)[C@H](N)CCCNC(=N)N)C(=O)N[C@H](CCSC)C(=O)N[C@H](Cc1ccc(O)cc1)C(=O)N[C@H](Cc1ccccc1)C(N)=O | cell growth or viability | trypan blue |  | 18 µM
C[C@H]1C(OCCCCCC[P+](c2ccccc2)(c2ccccc2)c2ccccc2)O[C@@H]2O[C@@]3(C)CCC4[C@H](C)CCC1[C@]42OO3 (stereo partly drawn) | cell growth or viability | MTT | 72 h | 0.187 µM
C=CC[P](c1ccccc1)(c1ccccc1)[Pt]([S]c1nc2ccccc2[nH]1)([S]c1nc2ccccc2[nH]1)[P](CC=C)(c1ccccc1)c1ccccc1 | cell growth or viability | MTT |  | 18.6 µM
[Ga+3].[O-]c1ccc(Br)c2cccnc12.[O-]c1ccc(Br)c2cccnc12.[O-]c1ccc(Br)c2cccnc12 | cell growth or viability | MTT | 72 h | 8.7 µM
CCN1CC2(COC)CCC(OC)C34C5CC6C(OC)CC(O)(C(CC23)C14)C5C6OC(C)=O (stereo not drawn) | cell growth or viability | MTT |  | 18.5 µM
CCCCCCCCCCCCCCC(=O)O.O=C1CCCC2C3CCCN4CCCC(CN12)C34 (stereo not drawn) | cell growth or viability | MTT | 24 h | 170 µM
Cc1[nH]c(=O)c(CNC(=O)c2ccc(C(F)(F)F)nc2)c2c1CCCC2 | cell growth or viability | MTT | 72 h | > 100 µg/mL
CO[C@@H]1[C@@H](O)[C@H](O[C@H]2CC[C@@]3(C)[C@H](CC[C@@H]4[C@@H]3CC[C@]3(C)[C@@H](C5=CC(=O)OC5)[C@@H](O)C[C@]43O)C2)O[C@H](C)[C@@H]1O[C@@H]1O[C@H](CO)[C@@H](O)[C@H](O)[C@H]1O | cell growth or viability | MTT | 48 h | 0.42 µM
CC[C@H](C)[C@@H]1NC(=O)[C@H](CCCNC(=N)N)NC(=O)C[C@@H](c2cccc3ccccc23)NC(=O)[C@@H]2CSSC[C@H](NC(=O)C[C@@H](c3cccc4ccccc34)NC(=O)[C@H](CCCNC(=N)N)NC(=O)[C@@H]3CCCN3C(=O)[C@@H]3CCCN3C1=O)C(=O)N[C@@H](Cc1ccccc1)C(=O)N1CCC[C@H]1C(=O)N[C@@H](CC(=O)O)C(=O)N[C@@H](CC(=O)O)C(=O)N[C@@H](Cc1ccccc1)C(=O)N2 | cell growth or viability | ATP luminescence | 72 h | 0.369 µM
COCC12CN(C)C3C4C(OC)C1C3(C(OC)CC2O)C1CC2(O)C(OC)C(O)C4(OC(C)=O)C1C2OC(=O)c1ccccc1 (stereo not drawn) | cell growth or viability | MTT |  | 13 µM
C1=CCCC=CCC1.C1=CCCC=CCC1.[Cl][Hg-]([Cl])[Cl].[Cl][Hg-]([Cl])[Cl].[Pt+][c]1ccccc1P(=Nc1ccccc1)(c1ccccc1)c1ccccc1.[Pt+][c]1ccccc1P(=Nc1ccccc1)(c1ccccc1)c1ccccc1 | cell growth or viability | MTT | 24 h | 0.85 µM
OC[C@H]1[C@@H](O)[C@@H](O)CN1Cc1ccccc1 | cell growth or viability | MTS | 72 h | > 200 µM
C[C@H]1C(OCCCCCCCCCCCC[P+](c2ccccc2)(c2ccccc2)c2ccccc2)O[C@@H]2O[C@@]3(C)CCC4[C@H](C)CCC1[C@]42OO3 (stereo partly drawn) | cell growth or viability | MTT | 72 h | 0.189 µM
CCN1CC2(COC)CCC(O)C34C5CC6C(OC)CC(O)(C(CC23)C14)C5C6O (stereo not drawn) | cell growth or viability | MTT |  | 8.33 µM
C[C@@H]1CCC2[C@@H](C)[C@@H](OCCC[P+](c3ccccc3)(c3ccccc3)c3ccccc3)O[C@@H]3O[C@@]4(C)CCC1[C@@]23OO4 (stereo partly drawn) | cell growth or viability | MTT | 72 h | 0.179 µM
C[C@H]1O[C@@H](O[C@H]2[C@@H](O)C[C@H](O[C@H]3[C@@H](O)C[C@H](O[C@H]4CC[C@@]5(C)[C@H](CC[C@@H]6[C@@H]5C[C@@H](O)[C@]5(C)[C@@H](C7=CC(=O)OC7)[C@@H](O)C[C@]65O)C4)O[C@@H]3C)O[C@@H]2C)C[C@H](O)[C@@H]1O | cell growth or viability | MTT | 48 h | 0.36 µM
C=C1C2CC3(C1O)C1CC4C5(C)CCC(O)C4(C1N(CC)C5)C3CC2O (stereo not drawn) | cell growth or viability | MTT |  | 25.2 µM
CCCCCCCCc1ccc(C(=O)N[C@@H](CO)C(=O)N[C@H](C(=O)N[C@@H](C)C(=O)N[C@H](C(=O)O)[C@@H](C)CC)[C@@H](C)OP(=O)(O)O)cc1 | cell growth or viability | MTT | 72 h | 79.5 µM
N.N.O=C([O][Pt]([OH])([Cl])[Cl])c1ccc(P(c2ccccc2)c2ccccc2)cc1.[Cl][Au] | cell growth or viability | resazurin | 72 h | 15 µM

SMILES | read-out | technique | time | IC50
CC(C)=CCC[C@@](C)(O)[C@H]1CC[C@]2(C)[C@@H]1CC[C@@H]1[C@@]3(C)CCC(=O)C(C)(C)[C@@H]3CC[C@]12C | cell growth or viability | SRB |  | 47.8 µM
CC[C@H](C)[C@H](NC(=O)[C@H](CCCCN)NC(=O)[C@H](CCCCN)NC(=O)[C@H](C)NC(=O)[C@H](CC(C)C)NC(=O)[C@H](C)NC(=O)[C@H](C)NC(=O)[C@H](CC(C)C)NC(=O)[C@H](C)NC(=O)[C@H](CCCCN)NC(=O)[C@H](CC(C)C)NC(=O)[C@H](CC(N)=O)NC(=O)[C@@H](NC(=O)[C@H](CCCCN)NC(=O)CNC(=O)[C@H](CC(C)C)NC(=O)[C@H](CC(C)C)NC(=O)[C@H](Cc1ccc(O)cc1)NC(=O)CNC(=O)[C@H](C)NC(=O)[C@H](CO)NC(=O)[C@H](CC(N)=O)NC(=O)[C@H](CC(C)C)NC(=O)[C@@H](NC(=O)[C@H](Cc1c[nH]c2ccccc12)NC(=O)CN)[C@@H](C)O)[C@@H](C)CC)C(=O)N[C@@H](CC(C)C)C(N)=O | cytotoxicity |  |  | 2.5 µM
CC(C)C(O)C(NC(=O)[C@H](Cc1ccc(O)cc1)NC(=O)C(Cc1ccc(O)cc1)[N+](C)(C)C)C(=O)N[C@@H](C)C(=O)O (stereo partly drawn) | cell growth or viability |  |  | > 100 µM
C[C@H]1O[C@@H](O[C@H]2CC[C@@]3(C)[C@H](CC[C@@H]4[C@@H]3CC[C@]3(C)[C@@H](C5=CC(=O)OC5)[C@@H](O)C[C@]43O)C2)C[C@H](O)[C@@H]1O[C@@H]1O[C@H](CO)[C@@H](O)[C@H](O)[C@H]1O | cell growth or viability | MTT | 48 h | 0.14 µM
CC(C)C[C@H](NC(=O)[C@H](C)NC(=O)[C@H](CCCCN)NC(=O)[C@H](CC(C)C)NC(=O)[C@H](C)NC(=O)[C@H](CC(C)C)NC(=O)[C@H](CCCCN)NC(=O)[C@H](CC(C)C)NC(=O)[C@H](C)NC(=O)[C@H](CC(C)C)NC(=O)[C@@H](N)CCCCN)C(=O)N[C@@H](CCCCN)C(=O)N[C@@H](C)C(=O)N[C@@H](C)C(=O)N[C@@H](CC(C)C)C(=O)N[C@@H](CCCCN)C(=O)N[C@@H](CC(C)C)C(=O)N[C@@H](C)C(N)=O | cytotoxicity |  |  | 2.1 µM
O=C(c1ccccc1O)c1[nH]c(Cl)c(Cl)c1-n1c(C(=O)c2ccccc2O)cc(Cl)c1Cl | cell growth or viability | resazurin | 24 h | 14 µg/mL
C#CCCCC[C@H](C)C[C@@H](C)C(=O)N(C)[C@H](C(=O)N(C)[C@@H](Cc1ccccc1)C(=O)N1CCC[C@H]1C(=O)N1CCC[C@H]1C(C)=O)C(C)C | cell growth or viability | SRB |  | 0.2 µM
COCC12CCC(OC)C34C5CC6(O)C(O)C5C(O)(C(O)C6OC)C(C(OC)C13)C4N(C)C2 (stereo not drawn) | cell growth or viability | MTT |  | 12.3 µM
CC(=O)[C@@H]1CCCN1C(=O)[C@@H]1CCCN1C(=O)[C@H](Cc1ccccc1)NC(=O)[C@@H](NC(=O)[C@@H](NC(=O)[C@@H](NC(=O)[C@@H]1CCCN1C(=O)[C@H](C)NC(=O)OC(C)(C)C)C(C)C)C(C)C)C(C)C | cell growth or viability | SRB |  | 2 µM
CC1OC(OC2CCC3(C)C(CCC4C3CCC3(C)C(C5=CC(=O)OC5)CCC43O)C2)C(O)C(O)C1OC1OC(CO)C(O)C(O)C1O (stereo not drawn) | cell growth or viability | MTT | 48 h | 0.09 µM
CCN1CC2(COC)CCC(OC)C34C5CC6(O)C(OC)C(O)C(O)(C5C6OC(=O)c5ccccc5)C(C(OC)C23)C14 (stereo not drawn) | cell growth or viability | MTT |  | 16.1 µM
C#CCCCC[C@H](C)C[C@@H](C)C(=O)N(C)[C@@H](C)C(=O)N1CCC[C@H]1C(=O)N(C)[C@H](C(=O)N(C)[C@H](C(=O)OC)C(C)C)C(C)C | cell growth or viability | SRB |  | 1 µM
C[C@@H]1O[C@@H](Oc2cc3c(=O)oc4c(O)c(O)cc5c(=O)oc(c2O)c3c45)[C@H](O)[C@H](O)[C@H]1OC(=O)c1cc(O)c(O)c(O)c1 | cell growth or viability | MTT | 48 h | > 100 µg/mL
C[C@H]1O[C@@H](O[C@H]2CC[C@@]3(C)[C@H](CC[C@@H]4[C@@H]3C[C@@H](O)[C@]3(C)[C@@H](C5=CC(=O)OC5)[C@@H](O)C[C@]43O)C2)C[C@H](O)[C@@H]1O | cell growth or viability | MTT | 48 h | 0.67 µM
COc1ccnc(-c2cc(OC)ccn2)c1.[C-]#[O+].[C-]#[O+].[C-]#[O+].[Re+] | cell viability |  |  | 9.7 ± 4.1 µM
COCC12CN(C)C3C4C(OC)C1C3(C(OC)CC2O)C1CC2(O)C(OC)C(O)C4(O)C1C2OC(=O)c1ccccc1 (stereo not drawn) | cell growth or viability | MTT |  | 25.9 µM
O=C(O)c1ccc([PH]([Au][Cl])(c2ccccc2)c2ccccc2)cc1 | cell growth or viability | resazurin | 72 h | 24.9 µM
C=CC[P](c1ccccc1)(c1ccccc1)[Pt]([S]c1ccc(C(F)(F)F)cn1)([S]c1ccc(C(F)(F)F)cn1)[P](CC=C)(c1ccccc1)c1ccccc1 | cell growth or viability | MTT |  | 12.6 µM
C[C@H]1C(OCCCCCCCC[P+](c2ccccc2)(c2ccccc2)c2ccccc2)O[C@@H]2O[C@@]3(C)CCC4[C@H](C)CCC1[C@]42OO3 (stereo partly drawn) | cell growth or viability | MTT | 72 h | 0.126 µM
C=CC[P](c1ccccc1)(c1ccccc1)[Pt]([S]c1ncccn1)([S]c1ncccn1)[P](CC=C)(c1ccccc1)c1ccccc1 | cell growth or viability | MTT |  | 16 µM
CCN1CC2(COC)CCC(OC)C34C5CC6C(OC)CC(O)(C(CC23)C14)C5C6OC(=O)c1ccccc1 (stereo not drawn) | cell growth or viability | MTT |  | 25.4 µM
